Assay results pooled from the literature.
Target: Casein kinase I isoform epsilon (CSNK1E, Homo sapiens, UniProt P49674)

SMILES	assay	conditions	how to read	endpoint	result
CN1CCN(Cc2ccc(-c3ccc(CO[C@H]4CCC[C@@H]4NC(=O)c4cc(-c5cnn(C)c5)cnc4N)cc3)cc2)CC1	enzyme activity, inhibitor	0.1 µM		inhibition	5%
NC(=O)C[C@H]1CCc2sc3ncnc(O[C@H]4CC[C@H](N5CCOCC5)CC4)c3c21	enzyme activity, inhibitor	10 µM		inhibition	8%
Cc1cc(NC(=O)[C@H](O)c2cc(F)cc(F)c2)ccc1-c1cnc(N)c(C(=O)NC(C)C)c1	binding, competition with immobilised ligand	1 µM		remaining binding	83%
Cc1cnc2nc1Nc1cccc(c1)COC/C=C/COCc1cc(ccc1OCCN1CCOCC1)N2	binding	0.1 µM		remaining binding	85%
Nc1ncc(-c2cc(-c3cnn(CC(F)(F)F)c3)ncc2F)nc1C(=O)NC1CNCC(F)C1 (stereo not drawn)	enzyme activity	1 µM	baseline: DMSO control	remaining activity	101%
C=CC(=O)N1CCCC(n2c(=O)c3ncccc3n(Cc3ccc(Oc4ccccc4)cc3)c2=O)C1 (stereo not drawn)	cell-free assay, competition with immobilised ligand	1 µM		remaining binding	100%
Cc1cccc(O[C@H]2CCC[C@@H](C(C)CNCc3ccncc3)C2)c1 (relative stereo)	enzyme activity, inhibitor	1 µM		inhibition	-7%
CCN1CCN(Cc2ccc(C(=O)Nc3ccc(C)c(NCc4cnc5[nH]ccc5c4OC)c3)cc2C(F)(F)F)CC1	binding, competition with immobilised ligand	1 µM		remaining binding	95%
COc1cc(Nc2nc(C)cc(-c3cnn4nc(OC)ccc34)n2)cc(C(F)(F)F)c1	inhibitor	1 µM	baseline: control	remaining activity	80%
C=CC(=O)N1Cc2nc(-c3cc(-c4cc(Cl)cnc4Cl)c(F)cc3F)n(-c3ccncn3)c2C1	enzyme activity, inhibitor	1 µM		inhibition	6%
CCn1cc(C(=O)O)c(=O)c2c(N)c(F)c(NC3CCCCC3)cc21	kinase activity	0.1 µM, with: ATP at Km		inhibition	-1.8%
CC(C)=CC1OC(C)(C)C2C=C3C(=O)C(Cl)=CC(O)C3C3C(O)C4OC4C(=O)C132 (stereo not drawn)	cell-free assay, competition with immobilised ligand	10 µM		remaining binding	100%
